Results collected from several papers.
Every numbered part comes from another study and shows a few of its results, in no order. Positions count from the first letter of the parent shown.

Set 1 — technique: Sort-seq; measured: YFP reporter; sample: E. coli; notes: PhoQ-PhoP variant library; added: 10 µM Mg2+; relative to: high Mg2+ state; direction: higher = stronger signaling
Substance: PhoQ, residues 284 288 289 292 302 303 TAVSDG
For PhoP, residues 12 14 15 18 19 TQALL (Escherichia coli, UniProt P23836): fold induction read 7.65.
The fold induction was 2.05 (PhoP, residues 12 14 15 18 19 QYFSL (Escherichia coli, UniProt P23836)).
The fold induction was 13.4 (PhoP, residues 12 14 15 18 19 NYFRM (Escherichia coli, UniProt P23836)).

Set 2 — target: CREB3L4, bZIP domain (human); technique: DHFR protein complementation; sample: yeast; relative to: wild-type JUN-FOS pair; direction: higher = stronger binding
Notes: single substitutions, most at no-binding floor
Parent: JUN, bZIP domain (human); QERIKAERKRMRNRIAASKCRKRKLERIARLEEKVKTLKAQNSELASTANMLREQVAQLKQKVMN; partner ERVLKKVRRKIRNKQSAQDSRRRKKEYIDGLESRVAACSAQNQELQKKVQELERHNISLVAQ
For `A29S`, the binding fitness was -1.42 natural log.
`L45W` gave a binding fitness of -1.52 natural log.
With `V56W` the binding fitness was -1.35 natural log.
`Q58P` gave a binding fitness of -1.53 natural log.
The binding fitness of `M51I` is reported as -1.13 natural log.
`L31K` has a binding fitness of -1.56 natural log.
For `L45H`, the binding fitness was -1.4 natural log.
`N42C` gave a binding fitness of -1.55 natural log.
The binding fitness of `E32Q` is reported as -1.19 natural log.
`R30V` gave a binding fitness of -1.31 natural log.
`L38K` gave a binding fitness of -1.54 natural log.
`Q41V` has a binding fitness of -1.51 natural log.
`E54Q` has a binding fitness of -1.55 natural log.
With `Q55G` the binding fitness was -1.48 natural log.
`E54Y` has a binding fitness of -1.55 natural log.
With `S47L` the binding fitness was -1.51 natural log.

Set 3 — technique: aptamer microarray, sandwich; form: DNA with 2'F-ANA; sample: in vitro; tested at: 200 nM; added: Cy3 exosite-II aptamer, 400 nM; direction: higher = stronger binding; strand: GGTTGGTGTGGTTGG
Target: Prothrombin, mature alpha-thrombin (F2, Homo sapiens, UniProt P00734)
Notes: whole 15-mer aptamer, many near background
`2'F-ANA at 2 3 5 6 7 8 9 12 13 15` — result for “mean fluorescence intensity”: 150 a.u.
`2'F-ANA at 1 4 5 7 13`: “mean fluorescence intensity” 55.6 a.u.
`2'F-ANA at 1 2 4 7 8 9 10 11 15`: “mean fluorescence intensity” 60.5 a.u.
Under “mean fluorescence intensity”, `2'F-ANA at 4 6 8 12 13` is recorded as 429 a.u.
`2'F-ANA at 4 8 9 10 14 15` — result for “mean fluorescence intensity”: 59 a.u.
`2'F-ANA at 3 4 5 6 7 9 11 12`: “mean fluorescence intensity” 158 a.u.
Under “mean fluorescence intensity”, `2'F-ANA at 1 2 6 7 9 13 15` is recorded as 117 a.u.
`2'F-ANA at 2 3 6 7 8 9 10 13`: “mean fluorescence intensity” 305 a.u.
Under “mean fluorescence intensity”, `2'F-ANA at 3 4 9 10 11 14` is recorded as 221 a.u.
For `2'F-ANA at 2 3 4 5 6 10 12 15`, “mean fluorescence intensity” read 106 a.u.
`2'F-ANA at 8 14 15` — result for “mean fluorescence intensity”: 222 a.u.
Under “mean fluorescence intensity”, `2'F-ANA at 2 4 5 8 9 13 15` is recorded as 52.9 a.u.
`2'F-ANA at 1 2 3 4 7 10 12 14` — result for “mean fluorescence intensity”: 52.5 a.u.
Under “mean fluorescence intensity”, `2'F-ANA at 9 10 11 12 13` is recorded as 171 a.u.
`2'F-ANA at 1 2 3 4 6 7 8 9 10 11 14`: “mean fluorescence intensity” 57.9 a.u.
`2'F-ANA at 4 5 7 8 9 10 11 12 13 15` — result for “mean fluorescence intensity”: 46.3 a.u.
`2'F-ANA at 2 4 5 6 7 9 11 13 14`: “mean fluorescence intensity” 45.8 a.u.
`2'F-ANA at 3 4 9 10 12` — result for “mean fluorescence intensity”: 379 a.u.
`2'F-ANA at 3 6 9 10 12 13`: “mean fluorescence intensity” 519 a.u.
For `2'F-ANA at 2 3 4 6 7 9 10 12 13 14`, “mean fluorescence intensity” read 158 a.u.
`2'F-ANA at 3 11 13`: “mean fluorescence intensity” 986 a.u.
`2'F-ANA at 4 5 6 7 8 9 11 12` — result for “mean fluorescence intensity”: 96 a.u.

Set 4 — technique: RNA Bind-n-Seq; form: RNA; sample: in vitro; tested at: 1 µM; notes: whole 134-nt RNA, ends assumed; added: 150 mM KCl; relative to: input library; direction: higher = stronger binding
Target: Ras GTPase-activating protein-binding protein 1, RRM domain (G3BP1, Homo sapiens, UniProt Q13283)
Chain of UniProt Q13283 (whole entry, looked up): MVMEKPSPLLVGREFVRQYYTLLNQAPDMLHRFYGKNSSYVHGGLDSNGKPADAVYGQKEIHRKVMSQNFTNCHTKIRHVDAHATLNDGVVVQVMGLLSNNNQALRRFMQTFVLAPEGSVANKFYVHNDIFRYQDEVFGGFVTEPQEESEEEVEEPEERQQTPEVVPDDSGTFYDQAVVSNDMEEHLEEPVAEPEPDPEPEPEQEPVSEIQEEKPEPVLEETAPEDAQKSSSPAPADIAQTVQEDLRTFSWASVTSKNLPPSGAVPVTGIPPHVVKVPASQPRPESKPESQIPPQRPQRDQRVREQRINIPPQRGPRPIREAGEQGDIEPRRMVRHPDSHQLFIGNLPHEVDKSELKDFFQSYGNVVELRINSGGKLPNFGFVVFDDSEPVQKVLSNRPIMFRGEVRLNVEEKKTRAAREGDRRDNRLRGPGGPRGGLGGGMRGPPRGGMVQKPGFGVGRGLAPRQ
All sequences stand within: GGGAGUUCUACAGUCCGACGAUC … UGGAAUUCUCGGGUGUCAAGG
The log2 enrichment of `AGUCCUGUGCUACACAUCGUAUGUACCGAAUCGGAAAAAAAGGAAAGGUUUUUUUGGAAAGUAUUAUGUUACGCCGUUCGGAUCUGCACU` is reported as -0.257.
`UGGCCCUGGUGGCAUGCGGGGAGGAAGAGGUGGCCUCAUGGAUCGUGGUGGUCUCGGUGGAAUGUUCAGAGGUGGCCGUGGUGGAGACAG` has a log2 enrichment of 0.658.
The log2 enrichment of `UGGCCCUGGUGGCAUGCGGGGAGGAAGAGGUGGCCUCAUGGAUCGUGGUGGUCCCGGUGGAAUGUUCAGAGGUGGCCGUGGUGGGGACAG` is reported as 1.85.
The log2 enrichment of `ACCAUGCAGGUGGGCAUCUUUGGGAAGUGGGGCAAGGGGGGGAUAGGGAGGGGGGUAUCACUUUGGGAACAGGUGGUCCCAGGUCGUUUC` is reported as 0.827.
`UAACUUUAGAGGAAGAUCUGAUGGAUAUGGCAGUGGACGUGGAUUUGGGGAUGGCUAUAAUGGGUAUGGAGGAGGACCUGGAGGUGGCAA` has a log2 enrichment of -0.862.
`GCAGGAAGUAAAAACAAAUGGAAAUGCUUCGGAUAGUGGCAGGGGUGAAAGUUGCUAAGGAAAGGGUGGGAUGGGAGUGGGUAAAGAGUU` has a log2 enrichment of 1.36.
For `AGUCCUGUGCUACACAUCGUAUGUACCGAAUCGGAAAAAGGGGAAAAAGGGAAAAAGGAAAGUAUUAUGUUACGCCGUUCGGAUCUGCAC`, the log2 enrichment was -0.0102.
`ACCAUGCAGGUGGGCAUCUUUGGGAAGUGGGGCAAGGGGGGGAUAGGGAGGGGGGUAACACUUUGGGAACAGGUGGUCCCAGGGCGUUUC` has a log2 enrichment of 1.
With `UGGGAGGUGGAUUUUGUUUAUUUUUUUAGCUCAUUUCCAGGGGUGGGAAUUUUUUUUUAAUAUGUGUCAUGAAUAAAGUUGCUUUUGAAA` the log2 enrichment was 2.08.

Set 5 — target: CCNB2, cyclin fold, Cln2 fusion (human); technique: yeast growth competition, sequencing; sample: yeast; notes: weak parent motif; relative to: not given; direction: higher = stronger binding
Parent: CDT1 docking peptide (human); PPARRRLRLSVDE
For `PPAARRLRLSVDE [R4A]`, “normalised enrichment score” read 0.174.
For `PPARRRLALSVDE [R8A]`, “normalised enrichment score” read 0.438.
`PPARKRLRLSVDE [R5K]` — result for “normalised enrichment score”: 0.863.
Under “normalised enrichment score”, `APARRRLRLSVDE [P1A]` is recorded as 0.397.
`PPARARLRLSVDE [R5A]` — result for “normalised enrichment score”: 0.13.
`PPARRRLRASVDE [L9A]`: “normalised enrichment score” 0.414.
For `PPARRRLRLAVDE [S10A]`, “normalised enrichment score” read 0.149.
